Assay results of several laboratories.
A part holds a random share of what one study measured.

Block 1
Target: Histone acetyltransferase KAT6A, both winged helices, GST fusion (KAT6A, Homo sapiens, UniProt Q92794, residues 1-181)
Technique: protein binding microarray
Molecule type: double-stranded DNA, one strand shown
Medium: in vitro
Concentration: not given
Notes: 8-mer, flanks averaged, mean of 2 arrays, mostly near background
Reference: not given
Reading: higher = stronger binding
Residues (chain): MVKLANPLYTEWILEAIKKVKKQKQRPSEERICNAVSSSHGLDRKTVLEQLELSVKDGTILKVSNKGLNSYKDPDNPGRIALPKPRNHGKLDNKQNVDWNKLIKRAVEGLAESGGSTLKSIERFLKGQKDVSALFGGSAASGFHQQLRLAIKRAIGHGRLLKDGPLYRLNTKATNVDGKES
| Strand | E-score |
| --- | --- |
| ACGAACAT | -0.0596 |
| TGTTACAA | -0.0554 |
| GTCAGATA | -0.0926 |
| AGCGCCTA | 0.0968 |
| GTAACGTA | 0.0212 |
| TGAACTAA | -0.105 |
| GGGACGAA | 0.131 |
| CTGGGTTA | -0.203 |
| AACCACTC | -0.142 |
| CACTTGTA | -0.143 |
| CGGGCTGA | 0.135 |
| GTGGATTA | -0.0819 |
| GACTCCGC | 0.19 |
| GCATCCGC | 0.115 |
| AACCCATA | -0.235 |
| CTACTTCA | -0.0757 |
| GACGCAAA | 0.133 |
| AAGTAGAG | -0.14 |
| ACTAAGCA | -0.103 |

Block 2
Target: RNA binding protein fox-1 homolog 2, RRM domain, GST-SBP tag (RBFOX2, Homo sapiens, UniProt O43251-10, residues 100-194)
Technique: RNA Bind-n-Seq
Molecule type: RNA
Medium: in vitro
Concentration: 365 nM
Notes: natural RNA segment, single round, ends assumed
Reference: no-protein control
Reading: higher = stronger binding
Residues (chain): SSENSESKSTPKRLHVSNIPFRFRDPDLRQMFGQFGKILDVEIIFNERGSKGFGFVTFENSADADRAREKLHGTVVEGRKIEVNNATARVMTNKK
| Strand | RBNS enrichment (R) |
| --- | --- |
| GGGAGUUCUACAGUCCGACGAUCCACCAUAGAGUUCACACAAAAUUUUAGGCAGUGUUUCAAGAAGCACUCUUAUGUGUUGUUCUUUCAGCCCAUGCUCCAGGUCACCGGUUUUUAGGUAAACAUGACAUGACUGGAAUUCUCGGGUGCCAA | 0.35 |
| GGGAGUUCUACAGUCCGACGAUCGCCUAGCAAUUUGAGCUCUCAGCAGUGAGAAGACCCCGCCCUGCCUUCAUUAGAGCUAUCAAUACUGAGUGGCUAGAACUCCAGGGACUGUGUGGGUUGCUCUGUUUUCUUGGAAUUCUCGGGUGCCAA | 0.655 |
| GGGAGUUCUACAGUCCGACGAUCGUUCACCAGGUGCCUGUCAUCACCCCACUUGACUGACAUCUACCCUGGUGACUAUGGGUUCCUCUUGUUUGUAGGGAACGGUGGCUCCAGGUGGAGGCAUCAAUCUGUUGUGGAAUUCUCGGGUGCCAA | 0.491 |
| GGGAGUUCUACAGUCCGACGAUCAUUUCCAGUUGCCCAUCAGAUUUAAUCUUACUUAUGUAAGGCAUGAUGGUGAUGAUAAGAAAAGGCCAGUGAUUGUUCAUCGAGCCAUCUUGGGAUCAGUGGAAAGAAUGUGGAAUUCUCGGGUGCCAA | 0.307 |
| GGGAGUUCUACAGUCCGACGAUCCAGCUCUGUCUGCCACACACGUGCAAGCAAUUGUGAUUUAGAGUCACCUCCUAUCCCAUUUGAUCUCACGUAAGCUCCAUUCUCCCACACAACUCUGGGCUCUGUUCAGCUGGAAUUCUCGGGUGCCAA | 0.317 |
| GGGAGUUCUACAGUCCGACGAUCAGUACUAGAAGCCAGAGCACUCUUCCUCCUGGCUCCUCCCCAGUGCUCUAGUGCUGUAGGAACCAAGAGCCAGCCCCAGGUUCCCCGAGGCAGUAAAAAUCCAGCACAGGUGGAAUUCUCGGGUGCCAA | 0.441 |
| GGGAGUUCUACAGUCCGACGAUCUUUUCUCCUCCCAGUAAAUCUCAGUGAUGAUGUCAUGGUGAUUGAGUAGGAUGAGGCCUGUAUUACCGAAGUCUGGGAGCAUAAUUGAACUUGGUCUUCUGUGUUCUAGAUGGAAUUCUCGGGUGCCAA | 0.384 |
| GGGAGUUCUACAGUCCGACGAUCUGCCAAAAUUCAUUUUUCUAACUCUGUGUGUUAGGAAAUAAUGAAAAAUAAAAUAAUUUAAAAUAAACAUUGUGCCUCUCUGUCUUAUUGGUGUUUCUUUAGAACUGAAUUGGAAUUCUCGGGUGCCAA | 0.861 |
| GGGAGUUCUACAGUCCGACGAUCAAUUCAACGGAUAUAUAUUUAUCAAUGUAGACUUCUCUGUGAAGUCAAGGUUUAUUUUCACAUGAGUCCAGCUUGCAGCAAGUAAUCUUCAAAUAUUCCAGUAAGUUUUGUGGAAUUCUCGGGUGCCAA | 0.611 |
| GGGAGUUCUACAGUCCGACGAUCUCCAAAAGUCCCCACUAGUUGGUGUACCUGUCUAUUUCUCUGGAUACUGCUAGCCAAAGGGCUCGGGCCCCCCCCUGGACUGACCUGCCCAUGUAAUUUUCCCACUGCCAUGGAAUUCUCGGGUGCCAA | 0.576 |
| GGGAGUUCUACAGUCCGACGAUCGGGUGAUCCAAUUAUAGGGCUGGGGCAACCCUGCUUUGGCCACCCUCAUUUACAAACUUAGGUUGGGAGCUUGGGUUUCCUGUCUCACUUCCAAAAGCCUUCAAGAUGGCUGGAAUUCUCGGGUGCCAA | 0.29 |
| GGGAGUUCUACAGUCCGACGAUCGCCCCAGCCAAAGGCGUGGCUGUCAGGGCUGGGCCCUGUAGUGCUGGACUCUCCCGGGCCACAAUAGGGACAGGGCAGGGACAGGGACAGCCCAGGUCACACGUGGGGUCUGGAAUUCUCGGGUGCCAA | 0.581 |

Block 3
Target: Fragile X messenger ribonucleoprotein 1, C-terminal low-complexity region (Fmr1, Mus musculus, UniProt P35922)
Technique: RNA Bind-n-Seq
Molecule type: RNA
Medium: in vitro
Concentration: 200 nM
Notes: whole 134-nt RNA, ends assumed
Together with: 150 mM KCl
Reference: input library
Reading: higher = stronger binding
| Strand | log2 enrichment |
| --- | --- |
| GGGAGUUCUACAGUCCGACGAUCUGGAGCUACAGAUGGUGUCCUUCCUGCCAGGUGUGUGUGGAGGCCAGUAUGAAGCUGAAAAAGCAGGUGACAGUGUGUGGGGCUGCCAUCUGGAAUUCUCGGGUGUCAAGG | -0.231 |
| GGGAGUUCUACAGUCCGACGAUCCAAGUCCUGUGCUACACAUCGUAUGUACCGAAUCGGGAAAGGGGAAAGGGGAAAGGAAAGUAUUAUGUUACGCCGUUCGGAUCUGCACUUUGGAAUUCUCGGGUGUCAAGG | -0.0043 |
| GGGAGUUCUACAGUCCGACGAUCCAAGUCCUGUGCUACACAUCGUAUGUACCGAAUCGGUUUUGGGUUUUGGGUUUUGGAAAGUAUUAUGUUACGCCGUUCGGAUCUGCACUUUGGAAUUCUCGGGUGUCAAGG | -0.782 |
| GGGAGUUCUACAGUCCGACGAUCCAAGUCCUGUGCUACACAUCGUAUGUACCGAAUCGGGAAAGGGGAAAGGAAAGGGGAAAGUAUUAUGUUACGCCGUUCGGAUCUGCACUUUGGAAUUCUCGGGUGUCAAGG | 0.495 |
| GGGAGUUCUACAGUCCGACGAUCACCAUGCAGGUGGGCAUCUUUGGGAAGUGGGGCAAGGGAAAGAUAGGGAGGGGGGUAACACUUUGGGAACAGGUGGUCCCAGGUCGUUUCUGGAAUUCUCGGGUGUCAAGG | 0.534 |
| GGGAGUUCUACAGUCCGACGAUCGGCUGCUGGAGUGCCGUGAGCAGGCCGCGGGAACGUCGCCGUCACCUUGUCUCGGGGCCUCGGCGCUGCUUCCCGCCAAAACACGUUUACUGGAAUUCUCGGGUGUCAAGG | -1.1 |
| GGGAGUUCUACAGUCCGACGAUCUGAAGGCGCGGCCCUUCCCCGACGGCCUGGCCGAGGACAUCGAUAAAGGCGAGGUGUCCGCCCGUCAGGAGCUCAAGCAGCGGGCGCGCUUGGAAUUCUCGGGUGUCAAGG | -0.299 |
| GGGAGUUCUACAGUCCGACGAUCCUCAAGUCCUGUGCUACACAUCGUAUGUACCGAAUCGGGGUUGGUUGGGGUUGGAAAGUAUUAUGUUACGCCGUUCGGAUCUGCACUUCCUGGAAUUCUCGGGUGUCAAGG | 0.277 |
| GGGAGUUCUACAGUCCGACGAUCCCUCAAGUCCUGUGCUACACAUCGUAUGUACCGAAUCGGAGGAGGUUUUUGGAAAGUAUUAUGUUACGCCGUUCGGAUCUGCACUUCCAGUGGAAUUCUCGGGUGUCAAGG | 0.121 |
| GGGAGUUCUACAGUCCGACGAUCUCAAGUCCUGUGCUACACAUCGUAUGUACCGAAUCGGUUUUUGGUUUUUGGAGGAAAGUAUUAUGUUACGCCGUUCGGAUCUGCACUUCCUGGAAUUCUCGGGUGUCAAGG | -0.474 |
| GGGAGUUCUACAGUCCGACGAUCCUGUGCUACACAUCGUAUGUACCGAAUCGGGGCCCCCCCGGGCCCCCCCGGCCCCCCCGGGAAAGUAUUAUGUUACGCCGUUCGGAUCUGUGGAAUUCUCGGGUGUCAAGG | -1 |
| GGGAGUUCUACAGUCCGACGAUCUGGGAGGUGGAUUUUGUUUAUUUUUUUAGCUCAUUUCCAGGGGUGGGAAAUUUUUUUUAAUAUGUGUCAUGAAUAAAGUUGUUUUUGAAAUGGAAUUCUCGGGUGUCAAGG | 0.319 |
| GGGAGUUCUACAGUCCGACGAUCAAGUCCUGUGCUACACAUCGUAUGUACCGAAUCGGUUUUUUUGGAAAAAAAGGUGGAAAGUAUUAUGUUACGCCGUUCGGAUCUGCACUUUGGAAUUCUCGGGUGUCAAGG | -1.01 |
| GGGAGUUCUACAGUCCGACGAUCUCCUGUGCUACACAUCGUAUGUACCGAAUCAAACCCAAACCCCCCCAAACCCCCCCAAAAAAGUAUUAUGUUACGCCGUUCGGAUCUGCAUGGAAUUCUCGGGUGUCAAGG | 0.11 |

Block 4
Target: Interferon regulatory factor 5, full length, phosphomimetic (IRF5, Homo sapiens, UniProt Q13568-2, residues 1-514, S451D/S453D/S456D/S462D)
Technique: protein-binding microarray
Molecule type: double-stranded DNA, one strand shown
Medium: in vitro
Concentration: 940 nM top
Notes: 60-bp whole probe
Together with: salmon DNA 0.4 mg/ml
Reference: random background probes
Reading: higher = stronger binding
Constant ends, left off below: GCCTAGCAC … GTCTTGATTCGCTTGACGCTGCTG
| Strand | fitted relative affinity [z-score] |
| --- | --- |
| GACGGTTTCGGATTGGGGACGTGCTAG | 7.14 |
| TTAGATATCAGTTTCTATTAGTGCTAG | 2.86 |
| TCACAAGTCTTGTTTTACACTGTGCTA | 0.382 |
| TTAGATATCGGGTTTCGACTAGTGCTA | 2.68 |
| CTTTCTTTGCTTCACCCTGGGTGCTAG | 1.17 |
| TTAGGATCCCTTTTCCTTTAGTGCTAG | 0.086 |
| ATTTAAAACAACTTTCAAAGGGTGCTA | 0.107 |
| CTTCATGTGCCTTTATATACGTGCTAG | 0.471 |
| GACGTTATCGGTCTCGGGACGTGCTAG | 0.923 |
| TCATCATTTTTTTTCATACTGTGCTAG | 1.5 |
| GACGATTTCACTATCGAGACGTGCTAG | 1.03 |
| TTAGGTTTCCTTGCCCTTTAGTGCTAG | 1.37 |
| GTGTTCTGGGCAGCAGAGGGGTGCTAG | -0.576 |
| GACGCACTGGGGACTGGAGACGTGCTA | -0.138 |
| TTAGGTACCGGTCTCGGTTAGTGCTAG | 2.47 |
| GACGTTTTCGGGTATCGGGACGTGCTA | 1.95 |
| AAATTCTGATATAATTCAAAGTGCTAG | 0.247 |
| TATTATATATTTATGTATACGTGCTAG | 0.464 |
| GACGATATCGGTTATCGAGACGTGCTA | 0.665 |
| TGGGCACACTTTGGGTCCTGGTGCTAG | -0.795 |
| CTAGTTTCCATTTTCAGAATGTGCTAG | 2.91 |
| GACGGTTTCCTTCTCCTGACGTGCTAG | 1.73 |
| TTAGGTGTCCTTATCCTTTAGTGCTAG | -0.0591 |
| TTAGGTCTCCTTCTCTTTTAGTGCTAG | 0.376 |
| TTAGAACTGGGGTATCGATTCGTGCTA | 2.57 |
